Experimental data of several laboratories.
Compare with care: the assays were run in different laboratories. Values joined by “and” are separate records of one study, mostly repeats; a detail may differ. ± gives the spread as reported.

`C[C@]1(CO)Cc2ncn(-c3ccc(C#N)c(Cl)c3)c2C(=O)O1`: “drug-related Somnolence incidence” 0% (healthy humans; 10 mg, fed).
`CC[C@H](C)[C@H](NC(=O)[C@H](Cc1ccccc1)NC(=O)[C@H](CCC(=O)O)NC(=O)[C@H](CCCNC(=N)N)NC(=O)[C@H](C)NC(=O)[C@H](C)NC(=O)[C@H](CCC(N)=O)NC(=O)[C@H](CCC(=O)O)NC(=O)[C@H](CCC(=O)O)NC(=O)[C@H](CC(C)C)NC(=O)[C@H](Cc1ccc(O)cc1)NC(=O)[C@H](CO)NC(=O)[C@H](CO)NC(=O)[C@@H](NC(=O)[C@H](CC(=O)O)NC(=O)[C@H](CO)NC(=O)[C@@H](NC(=O)[C@H](Cc1ccccc1)NC(=O)[C@@H](NC(=O)CNC(=O)[C@H](CCC(=O)O)NC(=O)[C@H](C)NC(=O)CCc1cnc[nH]1)[C@@H](C)O)[C@@H](C)O)C(C)C)C(=O)N[C@@H](C)C(=O)N[C@@H](Cc1c[nH]c2ccccc12)C(=O)N[C@@H](CC(C)C)C(=O)N[C@H](C(=O)N[C@@H](CCCNC(=N)N)C(=O)NCC(=O)N[C@@H](CCCNC(=N)N)C(=O)N[C@@H](CCCCNC(=O)COCCOCCNC(=O)COCCOCCNC(=O)CC[C@H](NC(=O)CCCCCCCCCCCCCCCCC(=O)O)C(=O)O)C(=O)NCC(=O)NCC(=O)N[C@@H](CO)C(=O)N[C@@H](CCCCNC(=O)[C@H](CCCCNC(=O)[C@H](CCCCNc1c(NCCCCCN(O)C(=O)CCC(=O)NCCCCCN(O)C(=O)CCC(=O)NCCCCCN(O)C(C)=O)c(=O)c1=O)Nc1c(NCCCCCN(O)C(=O)CCC(=O)NCCCCCN(O)C(=O)CCC(=O)NCCCCCN(O)C(C)=O)c(=O)c1=O)NC(=O)[C@H](CCCCNc1c(NCCCCCN(O)C(=O)CCC(=O)NCCCCCN(O)C(=O)CCC(=O)NCCCCCN(O)C(C)=O)c(=O)c1=O)Nc1c(NCCCCCN(O)C(=O)CCC(=O)NCCCCCN(O)C(=O)CCC(=O)NCCCCCN(O)C(C)=O)c(=O)c1=O)C(=O)O)C(C)C` [zirconium-89 labelled] gave a tissue uptake of 0.028 %ID/g and 0.027 %ID/g and 0.022 %ID/g and 0.019 %ID/g (ex vivo gamma counting; Sprague-Dawley rat, male, brain; intravenous, 1 nmol, 24 h).
For `CC(C)(C)c1cc(-n2nc3ccccc3n2)c(O)c(C(C)(C)C)c1`, “mean daily dermal uptake” read 1.82 ng/kg body weight/day (exposure assessment; human, age 21-60 years; cream).
`COc1ccc(C(C)(C)c2cnc(SCCOc3ccc(-n4ccnc4)cc3)n2-c2ccc(F)cc2)cc1OC` — result for “CYP1A2 induction Emax”: 5.01 fold (measured: CYP1A2 mRNA; sandwich-cultured human hepatocytes; 48 h; relative to: vehicle).
The ALT of `CC(C)[C@@H]1NC(=O)CNC(=O)[C@H](CC(N)=O)NC(=O)[C@H](CCCNC(=N)N)NC(=O)[C@H](Cc2ccc(O)cc2)NC(=O)[C@H](C(C)C)NC(=O)[C@@H](NC(=O)[C@@H](NC(=O)[C@H](CC(N)=O)NC(=O)[C@H](Cc2c[nH]c3ccccc23)NC(=O)[C@H](C)NC(=O)[C@H](Cc2ccccc2)NC(=O)CN)C(C)C)CSSC[C@@H](C(=O)N[C@@H](Cc2cnc[nH]2)C(=O)N[C@@H](CCCNC(=N)N)C(=O)N[C@@H](CCCNC(=N)N)C(=O)N[C@@H](C)C(=O)N[C@@H](CC(N)=O)C(N)=O)NC(=O)[C@H](C(C)C)NC(=O)[C@H](CCCNC(=N)N)NC1=O` is reported as 50.8 ± 1.9 IU/L (ICR mice, serum; intraperitoneal, 10 mg/kg, day 5).
`Cn1cc(-c2nc(N[C@@H]3CCCC[C@@H]3N)c(F)c3c2C(=O)NC3)cn1` — result for “hemorrhagic adverse events”: 7% (measured: Hematuria; patients with relapsed or refractory AML; oral, dose not given, all doses).
`CC(C)(O)c1cc(Nc2cc(Oc3cn(C4CC4)nc3C3CCOCC3)ccn2)ccn1`: “headache, any grade” 25% (grade 4 glioma expansion cohort; oral, 50 mg).
Under “incidence of neck pain”, `CC(C)c1nc(N(C)S(C)(=O)=O)nc(-c2ccc(F)cc2)c1/C=C/[C@@H](O)C[C@@H](O)CC(=O)O` is recorded as 0% (healthy human subjects; oral, dose not given, study CL-0537 safety set).
The donor concentration of `O=C(Nc1cccc(B(O)O)c1)c1cccc(OCc2ccccc2)c1` is reported as 126 ± 14.7 µM (PAMPA; pre-coated trilayer membrane; 200 µM, 5 h, pH 7.4, donor plate, PBS).
For `O=C(O)CCCOc1ccc(F)cc1-c1cc(-c2ccccc2C(F)(F)F)n(-c2ccccc2)n1`, “relative organ weight” read 0.89 ± 0.05 g% (female Crl:CD(SD) rats, brain; intravenous, 25 µg/kg, 1 d).
Under “incidence of ALT increased”, `O=c1ccc2ncc(=O)n3c2n1C[C@H]3CN1CCC(NCc2cc3c(cn2)OCCC3)CC1` is recorded as 0% (healthy human volunteers; oral, 1500 mg, rifampicin cohort, together with: rifampicin 600 mg).
`COc1ccc(C[C@@H]2NC(=O)[C@H]([C@@H](C)O)NC(=O)[C@@H]3[C@@H]4CCN3C(=O)[C@@H]3Cc5cn(c6ccc(F)cc56)CCCCCCN(Cc5ccc(cc5)CCNC(=O)[C@]5(C)CCCN5C2=O)C(=O)CCC(=O)N[C@@H](C)C(=O)N[C@H](CNC(=O)CCCCC[N+](C)(C)C)C(=O)N[C@@H](Cc2cccc(c2)CNC(=O)CO4)C(=O)N3)cc1` — result for “participants with adverse event”: 0% (measured: decreased appetite; human; dose not given).
Under “oral pain incidence”, `Cn1ncc(-c2nc(N[C@H]3CC[C@H](N)CC3)ncc2Cl)c1CC1CC1` is recorded as 12.9% (phase I dose escalation; human patients; oral, dose not given, treatment-related adverse events).
With `COc1cc2c(cc1OC)CN(CCc1ccc(NC(=O)c3cccc4c(=O)c5cccc(OC)c5[nH]c34)cc1)CC2` the AUC(0-inf) was 2.58 µg·h/mL (CD-1 mouse, male, plasma; intraperitoneal, 3 mg/kg).
For `COc1ncccc1-c1cnn2ccc(N3CCN(C(=O)OC(C)C)CC3)nc12`, “free drug concentration” read 0.028 µM (rat, CCI cold allodynia model, plasma; oral, 10 mg/kg, 240 min).
The cholesterol level of `O=S(=O)(Nc1ccccc1)c1ccc(NC(=S)Nc2ccccc2)cc1` is reported as 217 mg/dL (male mouse, blood; oral, 5 mg/kg daily, 14 days).
`COc1cc(C(=O)NC2CCN(C)CC2)c(F)cc1Nc1ncc(C(F)(F)F)c(Oc2cccc3c2C(=O)N(C)C3)n1` — result for “fraction excreted in urine (0-24 h)”: 6.01% (human patients, urine; oral, 200 mg single dose, geometric mean; relative to: dose).
For `Cc1ccccc1C(=O)NN=Cc1ccc(O)c(Br)c1`, the C0 was 0.145 µg/mL (C3H/HeN mouse IN model, plasma; intravenous, 0.8 mg/kg).
Under “patients with any TEAE”, `CC(=O)c1c(C)c2cnc(Nc3ccc(C4CCN(CCS(C)(=O)=O)CC4)cn3)nc2n(C2CCCC2)c1=O` is recorded as 79% (HR+/HER2- advanced breast cancer patients; oral, dose not given, grade 3/4, total).
`CC1(C)[C@H](C(=O)OCc2cccc(Oc3ccccc3)c2)[C@@H]1C=C(Cl)Cl`: “enzyme contribution to clearance” 2.23% (measured: CYP2C9; human, age 5 years, recombinant human CYP2C9; 0.1 µM).
For `Cn1c(-c2ccc(C(N)=O)cc2F)nnc1C(C)(C)Oc1c(F)cc(Cl)cc1F`, “subjects with any TEAE” read 16.7% (human; oral, 3 mg, single ascending dose).
`CO[C@H]1C[C@@H]2CC[C@@H](C)[C@@](O)(O2)C(=O)C(=O)N2CCCC[C@H]2C(=O)O[C@H]([C@H](C)C[C@@H]2CC[C@@H](OC(=O)NCCOCCOCCOCCOCCOCCOCCOCCOCCC(=O)N3CCc4cc(Cn5nc(-c6ccc7oc(N)nc7c6)c6c(N)ncnc65)ccc4C3)[C@H](OC)C2)C[C@@H](O)[C@H](C)/C=C(\C)[C@@H](O)[C@@H](OC)C(=O)[C@H](C)C[C@H](C)/C=C/C=C/C=C/1C`: “incidence of Dysgeusia TEAE” 15.8% (patients with advanced solid tumours; intravenous, dose not given, any grade).
`CCN(CCO)CCCC(C)Nc1ccnc2cc(Cl)ccc12` (stereo not shown): “patients with adverse event” 66% (measured: Anorexia grade 1; newly diagnosed glioblastoma patients; oral, 200 mg/dose, with radiotherapy and temozolomide).
For `O=C1Nc2cc3[nH]nc(-c4ccncc4)c3cc2CN1Cc1ccccc1`, “patients with fatigue” read 25% (CTCAE v4.03; advanced solid tumour patients; intravenous, 4.8 mg/kg, schedules 1/2).
`N=c1c2c(-c3ccccc3)c(-c3ccccc3)n(Cc3ccccc3)c2ncn1[C@H]1CC[C@H](O)CC1` has a fu of 0.0101 (equilibrium dialysis; plasma, mouse, CD-1, pooled).
`C=CCNc1c(O)cc2c(O)c1C[C@@H](C)C[C@H](OC)[C@H](O)[C@@H](C)/C=C(\C)[C@H](OC(N)=O)[C@@H](OC)/C=C\C=C(/C)C(=O)N2`: “patients with headache TEAE” 0% (unresectable or metastatic STS, GIST, other; intravenous, 150 mg/m^2).
`COc1cc2c(Oc3ccc4[nH]c(C)cc4c3F)ccnc2cc1OCC1(N)CC1` — result for “grade 1 or 2 sinus tachycardia”: 13.3% (paediatric recurrent refractory sarcoma; 8 mg/kg).
`CCc1ccc(CC/C=C/c2ccc3c(c2)C(=O)CC3)cc1`: “ALP serum activity” 98 U/L (Sprague-Dawley rat, female; oral, 30 mg/kg/day, 14 days).
`COc1ccc([C@@H](O)c2cc(-c3ncnc4cc(N5CCOCC5)ccc34)c(F)cc2Cl)nn1` gave a hypomagnesaemia incidence of 4% (patients, advanced solid tumours; oral, 300 mg twice daily, treatment-emergent, together with: avelumab; relative to: patients).
Under “AE leading to discontinuation”, `CC(C)n1c(C2CCNCC2)nc2c([N+](=O)[O-])c(Br)c(Br)cc21` is recorded as 2% (patients with AML; 125 mg, fungal sinusitis).
`C[C@@H]1NC(=O)[C@H](CCCCNC(=O)CO/N=C/C(=O)NCCCC[C@@H]2NC(=O)[C@@H](Cc3ccccc3)NC(=O)[C@H](CC(=O)O)NC(=O)CNC(=O)[C@H](CCCNC(=N)N)NC2=O)NC(=O)CNC(=O)[C@@H]2CCCN2C(=O)[C@H](CCCCNC(=O)CO/N=C/C(=O)NCCCC[C@@H]2NC(=O)[C@@H](Cc3ccccc3)NC(=O)[C@H](CC(=O)O)NC(=O)CNC(=O)[C@H](CCCNC(=N)N)NC2=O)NC(=O)[C@H](CCCCNC(=O)CCNC(=O)CCNC(=O)CCNC(=O)[C@H](CCCCN)NC(=O)[C@H](Cc2ccccc2)NC(=O)CNC(=O)CN2CCCNCCNCCCNCC2)NC(=O)[C@H](CCCCNC(=O)CO/N=C/C(=O)NCCCC[C@@H]2NC(=O)[C@@H](Cc3ccccc3)NC(=O)[C@H](CC(=O)O)NC(=O)CNC(=O)[C@H](CCCNC(=N)N)NC2=O)NC(=O)CNC(=O)[C@@H]2CCCN2C(=O)[C@H](CCCCNC(=O)CO/N=C/C(=O)NCCCC[C@@H]2NC(=O)[C@@H](Cc3ccccc3)NC(=O)[C@H](CC(=O)O)NC(=O)CNC(=O)[C@H](CCCNC(=N)N)NC2=O)NC1=O` [copper-64 labelled] has a tissue uptake of 1.9 ± 0.14 %ID/g (normal mice, heart; intravenous, 0.74 MBq, 3 h post-injection).
The placental accumulation of `CCCC1CCC(C2CCC(c3ccc(F)c(F)c3)CC2)CC1` (stereo not shown) is reported as 17 ± 21.3 ng/g (rat, placenta; 1000 ng/mL in perfusate, middle dose, mixture of 21 LCMs).
Under “Hypertriglyceridemia incidence, any grade”, `CCN1CCN(Cc2ccc(Nc3ncc(F)c(-c4cc(F)c5nc6n(c5c4)[C@H](C)CCC6)n3)nc2)CC1` is recorded as 70.8% (advanced solid tumour patients; dose not given, Phase Ia monotherapy).
For `CCCC(CCC)NC(=O)c1ccc2c(c1)OCO2`, the PCE/NCE ratio was 0.9 (Swiss albino CD-1 mice, male, bone marrow; intraperitoneal, 175 mg/kg, 24 h).
